Published values pooled from the literature.
Several values in a cell are separate wells, animals, samples, runs or records.
LYN: Tyrosine-protein kinase Lyn (LYN, Homo sapiens, UniProt P07948)
LYN isoform B: Tyrosine-protein kinase Lyn, isoform B (LYN, Homo sapiens, UniProt P07948)
LYN isoform A: Tyrosine-protein kinase Lyn, isoform A (LYN, Homo sapiens, UniProt P07948)

O=C=[N][Ru-4]123([n]4c5ccc(O)cc5c5c6c(c7cc(F)c[n+]1c7c54)C(=O)NC6=O)[S+]1CC[S+]2CC[S+]3CC1 (stereo not shown)
remaining activity (LYN; enzyme activity; 100 nM, human enzyme, with: 10 µM ATP; relative to: untreated): 86%

C[C@H]1CN(C(=O)c2cn(-c3ccnc(N)n3)c3cc(C#CC4(O)CCCCC4)ccc23)CCN1
inhibition (LYN; kinase activity, Z'-LYTE; 1 µM, with: ATP at apparent Km): 2%

CN1CCN(Cc2ccc(-c3ccc(CO[C@H]4CCC[C@@H]4NC(=O)c4cc(-c5cnn(C)c5)cnc4N)cc3)cc2)CC1
inhibition (LYN; SelectScreen kinase profiling; 0.1 µM): 7%

Nc1ncc(-c2cc(-c3cnn(CC(F)(F)F)c3)ncc2F)nc1C(=O)NC1CNCC(F)C1 (stereo not shown)
remaining activity (LYN; enzyme activity; 1 µM; relative to: DMSO control): 90.6%

COc1c(Cl)cccc1Nc1c(-c2ccncc2C#C[C@@]2(C)CCCN2C(=O)/C=C/CN(C)C)[nH]c2c1C(=O)NCC2
remaining binding (LYN; binding, competition with immobilised ligand; 3 µM): 86%

CNC(=O)C1CCN(c2cc(C)c(F)cc2NC(=O)c2ccc(-c3cc(O)ccc3C)c(C)c2)CC1
remaining binding (LYN; binding, competition with immobilised ligand; 1 µM): 3.6%

Cc1cnc2nc1Nc1cccc(c1)COC/C=C/COCc1cc(ccc1OCCN1CCOCC1)N2
remaining binding (LYN; binding; 0.1 µM): 86%

NC(=O)[C@@H](O)C[C@H]1CCc2sc3ncnc(O[C@H]4CC[C@H](N5CCOCC5)CC4)c3c21
inhibition (LYN isoform B; radioisotope kinase; 10 µM): 44%

C=CC(=O)N1CCCC(n2c(=O)c3ncccc3n(Cc3ccc(Oc4ccccc4)cc3)c2=O)C1 (stereo not shown)
remaining binding (LYN; cell-free assay, competition with immobilised ligand; 1 µM): 100%

CCn1cc(C(=O)O)c(=O)c2c(N)c(F)c(NC3CCCCC3)cc21
inhibition (LYN isoform A; kinase activity; 0.1 µM, with: ATP at Km): 0.8%

C=CC(=O)N1Cc2nc(-c3cc(-c4cc(Cl)cnc4Cl)c(F)cc3F)n(-c3ccncn3)c2C1
inhibition (LYN; kinome panel; 1 µM): 3.1%

CNC(=O)C[C@H](Cc1ccc(C#N)cc1)NC(=O)c1cc(-c2ccc(CN[C@H](C)c3ccc(C)cc3)o2)ccc1Cl
activity vs control (LYN; enzyme activity, inhibitor; 1 µM): 100%

COc1cc(Nc2nccc(-c3cnn4nc(OC)ccc34)n2)cc(C(F)(F)F)c1
remaining binding (LYN; binding, competition with immobilised ligand; 1 µM): 100%

Nc1ncc2c(n1)-c1c([nH]c3ccc(C4=CCOCC4)cc13)CCC2
remaining binding (LYN; binding, competition with immobilised ligand; 1 µM): 100%

CCN1CCN(Cc2ccc(NC(=O)c3ccc(C)c(NC(=O)c4cncc(-c5cccs5)c4)c3)cc2C(F)(F)F)CC1
remaining binding (LYN; binding, competition with immobilised ligand; 1 µM): 0.65%

C=CC(=O)Nc1cccc(-c2cnc3[nH]cc(C(=O)NC(C)(C)C)c3n2)c1
inhibition (LYN isoform A; enzyme activity, inhibitor; 0.1 µM): -7%

NC(=O)C[C@H]1CCc2sc3ncnc(O[C@H]4CC[C@H](N5CCOCC5)CC4)c3c21
inhibition (LYN isoform B; radioisotope kinase; 10 µM): 5%

Cc1cccc(O[C@H]2CCC[C@@H](C(C)CNCc3ccncc3)C2)c1 (relative stereo)
inhibition (LYN isoform B; kinome profiling; 1 µM): 4%

COCC12C(=O)NC3C4(C(OC)CC1O)C1CC5(O)C(OC)C(O)C(OC(C)=O)(C1C5OC(=O)c1ccccc1)C3(O)C(OC)C24 (stereo not shown)
remaining activity (LYN; kinase activity, inhibitor, ProQinase kinase profiling; 25 µM; relative to: control): 107% and 116%

Some of these lines once more:
CCn1cc(C(=O)O)c(=O)c2c(N)c(F)c(NC3CCCCC3)cc21
inhibition (LYN isoform A; kinase activity; 0.1 µM, with: ATP at Km): 0.8%

C=CC(=O)N1Cc2nc(-c3cc(-c4cc(Cl)cnc4Cl)c(F)cc3F)n(-c3ccncn3)c2C1
inhibition (LYN; kinome panel; 1 µM): 3.1%

CNC(=O)C[C@H](Cc1ccc(C#N)cc1)NC(=O)c1cc(-c2ccc(CN[C@H](C)c3ccc(C)cc3)o2)ccc1Cl
activity vs control (LYN; enzyme activity, inhibitor; 1 µM): 100%
